Assay results from different studies.
Each numbered part is a random draw from the data of one study; scales do not carry over between parts. Positions count from the first letter of the parent shown.

Sample 1
Target: RING finger protein unkempt homolog, zinc fingers 1-6, GST-SBP tag (UNK, Homo sapiens, UniProt Q9C0B0, residues 30-357)
Sequence of UniProt Q9C0B0 (30-357, looked up): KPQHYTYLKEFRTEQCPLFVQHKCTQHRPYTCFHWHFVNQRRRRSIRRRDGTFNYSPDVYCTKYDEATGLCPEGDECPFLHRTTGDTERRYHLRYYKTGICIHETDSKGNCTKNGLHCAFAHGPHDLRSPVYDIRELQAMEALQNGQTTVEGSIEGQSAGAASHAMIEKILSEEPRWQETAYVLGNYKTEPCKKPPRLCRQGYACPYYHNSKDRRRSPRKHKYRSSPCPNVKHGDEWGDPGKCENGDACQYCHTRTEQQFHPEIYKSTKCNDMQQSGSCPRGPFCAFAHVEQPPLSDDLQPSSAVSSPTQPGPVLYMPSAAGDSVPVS
Method: RNA Bind-n-Seq
Molecule type: RNA
Matrix: in vitro
Tested at: not given
Setting: RNA with constant flanks, human-mouse chimeric sites, ends assumed
Relative to: input RNA pool
Direction: higher = stronger binding
For `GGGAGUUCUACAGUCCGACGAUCCUGAGGAAUACCACUGAGAGACCUUAAAAGAAUCAUUUGAGGGCUCUGUUCGUGCAAAGGAUAGUUAUGAUCGGGAAACUGGUUCUUCCAAAGGGUUUGGUUUUGUAGACUUUAAUAGUGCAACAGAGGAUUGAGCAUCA`, the bound/input enrichment was 0.885 ratio.
For `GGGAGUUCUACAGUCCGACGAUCUCAGAAGCUGUGCUGGGUCACUUUUCAUAUCCAGAUCCUUCACAGUGGACAGAUGAAGAACUGGGAAUCCCUCCUGAUGACGAGGACUGACACUGUAAACUCUCUGGCACUCUGUACGCACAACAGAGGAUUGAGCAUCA`, the bound/input enrichment was 0.452 ratio.
The bound/input enrichment of `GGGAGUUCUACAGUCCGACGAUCCGCUUGGAUGAGGCGGGUGUCACAGAUGAAGUGCUAGAUUCUGCCAUGCAAGCCUUCCUUCUGGAGGUUAUCGUUAAACAUGGGGAGCCAGCCCCUUAUUUAUGUAACAAAGAUCCGUUUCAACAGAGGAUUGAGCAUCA` is reported as 0.185 ratio.
The bound/input enrichment of `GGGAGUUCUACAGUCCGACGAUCGAUAAGAAAAACUUGUUGGAGACCCGCUUGCAUGUCACUGGCAGAGACCUGAGGUGUCAAAUAGCUGAAACUUUCGGAUUUCAAGAAAAUUACAUCAAGAUCGUAAUAAAUAAGAAACAGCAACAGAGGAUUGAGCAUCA` is reported as 0.347 ratio.
The bound/input enrichment of `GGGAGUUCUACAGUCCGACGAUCCACAGAGGAGAUCUGCUGUUCCUCACGAAUUUCCGGGAGGACCCCAUCAGAGCUGGUGAAAUAGUUGUUUUUAAAGUUGAAGGAAGAGACAUUCCGAUAGUUCACAGAGUAAUCAAGGUUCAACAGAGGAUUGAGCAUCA` is reported as 5.14 ratio.
The bound/input enrichment of `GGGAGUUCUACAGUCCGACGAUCAACAGAUUGUCUUUAAGCAUUCCAAGCGAGAAUGCUGGGGUGAUCAUUGUUGCCCAUGUGCCUUCUGACUGAGCUUUUAAUUAAUUGCAUGUUACAUCUUUCCUUCAUUGCAUAUUUGUUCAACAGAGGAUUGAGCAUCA` is reported as 0.251 ratio.
The bound/input enrichment of `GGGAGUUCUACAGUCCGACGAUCCGAGACAAGACAUCCAGGAACAUGCGAGGCUCCCGGAUGAAUGGGUUGCCUAGCCCCACUCACAGCGCCCACUGUAGCUUCUACCGAACCAGAACCUUGCAGGCACUAAGUAAUGAGAAGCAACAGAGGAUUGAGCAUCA` is reported as 0.124 ratio.
The bound/input enrichment of `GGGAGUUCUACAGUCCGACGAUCCGGAGCCCUCCUCUCCCCCAGGCCCGAGAUAUAACCCACCAGUGCCUUUUGUCUUCCUGUCAGCUCUAAUCAAUCAUCCUGUCCUCUCACGCCCACACCAAGUGCCCAAAGUGGGGAGGGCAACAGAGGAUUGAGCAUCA` is reported as 0.65 ratio.

Sample 2
Target: vanadate, free oxyanion
Method: microfluidic competitive inhibition
Matrix: in vitro, cell-free expressed
Tested at: not given
Setting: derived from inhibition constants, unchanged parent 676 nM
Direction: lower = stronger binding
Starting sequence: PafA, mature enzyme, eGFP fusion (Elizabethkingia meningoseptica, UniProt Q9KJX5); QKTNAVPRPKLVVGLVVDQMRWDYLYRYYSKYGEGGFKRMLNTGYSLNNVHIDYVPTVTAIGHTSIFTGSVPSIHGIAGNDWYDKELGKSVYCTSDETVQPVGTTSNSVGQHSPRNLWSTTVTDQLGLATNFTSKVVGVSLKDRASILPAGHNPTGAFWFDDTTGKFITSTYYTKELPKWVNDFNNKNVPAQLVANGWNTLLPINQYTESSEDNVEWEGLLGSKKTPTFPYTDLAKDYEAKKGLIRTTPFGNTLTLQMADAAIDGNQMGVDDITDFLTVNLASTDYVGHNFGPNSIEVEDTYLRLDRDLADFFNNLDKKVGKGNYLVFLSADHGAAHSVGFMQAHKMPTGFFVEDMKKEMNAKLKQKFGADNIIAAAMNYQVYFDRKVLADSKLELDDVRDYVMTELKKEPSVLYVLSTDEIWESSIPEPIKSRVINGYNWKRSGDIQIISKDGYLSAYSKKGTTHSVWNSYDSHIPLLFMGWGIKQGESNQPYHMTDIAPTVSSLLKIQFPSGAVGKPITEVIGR
Under “oxyanion analog dissociation constant”, `Y415V` is recorded as 957 nM.
`N131G` — result for “oxyanion analog dissociation constant”: 515 nM.
`S223V` — result for “oxyanion analog dissociation constant”: 702 nM.
`M268G` — result for “oxyanion analog dissociation constant”: 1.37 µM.
`P203G`: “oxyanion analog dissociation constant” 551 nM.

Sample 3
Target: Centromere-binding protein 1, full length, His-tagged (CBF1, Saccharomyces cerevisiae, UniProt P17106, residues 1-351)
Sequence of UniProt P17106 (whole entry, looked up): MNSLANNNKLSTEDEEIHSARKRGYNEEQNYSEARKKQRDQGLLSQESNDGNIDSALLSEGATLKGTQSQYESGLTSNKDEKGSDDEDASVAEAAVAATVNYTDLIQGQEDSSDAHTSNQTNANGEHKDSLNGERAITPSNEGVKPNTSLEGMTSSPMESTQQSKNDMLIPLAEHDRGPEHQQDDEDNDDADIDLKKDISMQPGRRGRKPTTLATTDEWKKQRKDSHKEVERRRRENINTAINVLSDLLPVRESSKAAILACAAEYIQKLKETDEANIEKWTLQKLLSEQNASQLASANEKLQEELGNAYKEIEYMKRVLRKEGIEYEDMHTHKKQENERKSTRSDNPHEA
Method: competition protein-binding microarray
Molecule type: double-stranded DNA, one strand shown
Matrix: in vitro
Tested at: 2 µM
Setting: whole 60-bp probe, lowest competitor level
Together with: Pho4 competitor, 0.05 µM
Direction: higher = stronger binding
`CGCTTGAAAAGGAATCATGTGCCTATTTTCCTCATTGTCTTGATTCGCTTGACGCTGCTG` gave a fluorescence intensity of 521 a.u.
`CGCGCAGGATGCCATCACGGGCGATGGGACCACTACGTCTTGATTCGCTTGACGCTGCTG` has a fluorescence intensity of 70.7 a.u.
For `TGCGCAACAACTTGTCACGTAACTTTATGTCTAGAAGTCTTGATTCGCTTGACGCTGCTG`, the fluorescence intensity was 100 a.u.
`GGCTAAAACGAAGCCATCGTGCAAAATGGTAAGTTCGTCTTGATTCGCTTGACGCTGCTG` has a fluorescence intensity of 68.8 a.u.
With `AAGGCAATCAGGATGCACGTCGCCGTAAGATTGCAAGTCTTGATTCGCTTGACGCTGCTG` the fluorescence intensity was 69.1 a.u.
For `CAACACAAAGTTCGTCACGTCATTTAGCTGATAACGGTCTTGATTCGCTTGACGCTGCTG`, the fluorescence intensity was 132 a.u.
With `CTAGCCCATAAAATGGTCGTGCGGATTAACGAGCAAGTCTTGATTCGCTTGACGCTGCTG` the fluorescence intensity was 75 a.u.
`TTGATTAATGATTCCTTTTCCTCTTCTAGTGAAGTAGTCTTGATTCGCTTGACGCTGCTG` gave a fluorescence intensity of 74.5 a.u.

Sample 4
Target: CCNE1, cyclin fold, Cln2 fusion (human)
Method: yeast growth competition, sequencing
Matrix: yeast
Setting: strong parent motif
Relative to: not given
Direction: higher = stronger binding
Starting sequence: viral docking peptide; YKVKRRLVFGADD; partner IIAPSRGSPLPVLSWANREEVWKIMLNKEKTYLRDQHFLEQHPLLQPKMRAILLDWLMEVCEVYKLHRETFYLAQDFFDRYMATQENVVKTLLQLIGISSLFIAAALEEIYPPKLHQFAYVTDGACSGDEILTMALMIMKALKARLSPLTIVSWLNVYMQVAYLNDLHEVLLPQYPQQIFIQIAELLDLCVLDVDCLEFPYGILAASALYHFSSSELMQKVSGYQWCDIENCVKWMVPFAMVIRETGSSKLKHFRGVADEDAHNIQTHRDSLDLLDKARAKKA
`G10Y` — result for “normalised enrichment score”: 5.06.
For `F9H`, “normalised enrichment score” read 0.344.
For `G10A`, “normalised enrichment score” read 5.76.
Under “normalised enrichment score”, `K2Q` is recorded as 5.75.
Under “normalised enrichment score”, `F9Y` is recorded as 2.84.
For `K4N`, “normalised enrichment score” read 4.63.
`V8F`: “normalised enrichment score” 7.29.
For `R6V`, “normalised enrichment score” read 5.63.
`A11L` — result for “normalised enrichment score”: 6.08.
Under “normalised enrichment score”, `V3C` is recorded as 5.37.
`F9A`: “normalised enrichment score” -0.689.
`K2V` — result for “normalised enrichment score”: 5.13.
`K2N` — result for “normalised enrichment score”: 6.36.
`G10V` — result for “normalised enrichment score”: 5.05.
For `D12S`, “normalised enrichment score” read 5.35.
